Assay results collected from several papers.
Every numbered part comes from another study and shows a few of its results, in no order.

Sample 1 — technique: RNA Bind-n-Seq; molecule type: RNA; medium: in vitro; concentration: 365 nM; relative to: no-protein control; reading: higher = stronger binding
Target: RNA binding protein fox-1 homolog 2, RRM domain, GST-SBP tag (RBFOX2, Homo sapiens, UniProt O43251-10, residues 100-194)
Notes: natural RNA segment, single round, ends assumed
All sequences stand within: GGGAGUUCUACAGUCCGACGAUC … UGGAAUUCUCGGGUGCCAA
Residues (chain): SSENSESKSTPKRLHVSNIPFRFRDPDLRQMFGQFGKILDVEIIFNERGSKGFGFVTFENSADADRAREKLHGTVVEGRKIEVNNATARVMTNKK
`AUCUUUCUCCCUCAACUGAAGGGGUGCACCCACCUGUUUUCUGAAACACACGAGCAAACCCAGAGGUGGAUGUUAUGAACAGCUGUGUCUGCCAAACACAUUUACCCUUU`: “RBNS enrichment (R)” 0.325.
`CACGGUGUUCUCAGCACCGUGAUCUGUCAGCUGUGCUCUCUUAGCCUCCAGCCUGAGCUCUCAAGAGGUGGUAGAGCUAAGCUCUGGAGGUGGAGUCUUAGGAAGACCCA`: “RBNS enrichment (R)” 0.394.
`UGUUACUACUUAGUCACAAACCCCACAUUAUUCCAGUUUGGAAUUACUUAUUAAGGAGAAUUGGAAAUACAUAUGCCCAUGCUUAAAUUUUAUAGCUUUAAUUUGUGUUA`: “RBNS enrichment (R)” 0.428.
Under “RBNS enrichment (R)”, `UUGGCUCAUGCAUAUAACUAUCUGCUGCUGAUGUAGUUCUCCAUCUUCAAGAUUUAGAGUGGGUUAACCAGGUCAUUACAUCUUAAUUUAAUAACAAGCAUUACUGUAGA` is recorded as 0.609.
Under “RBNS enrichment (R)”, `AAAUAUAUGAGCCUAUGGGAACCAUUCUCAUUCAAACCACUAAACAUAGCCAAAUUCUUAGUUAUUUUAGACAGUAAAGGGGCUUCUAGAAUGUUAAGAAUGUUGAAAAU` is recorded as 0.861.

Sample 2 — technique: protein binding microarray; molecule type: double-stranded DNA, one strand shown; medium: in vitro; concentration: not given; relative to: not given; reading: higher = stronger binding
Target: Histone acetyltransferase KAT6A, winged helix 1, GST fusion (KAT6A, Homo sapiens, UniProt Q92794, residues 1-85)
Notes: 8-mer, flanks averaged, mean of 2 arrays, mostly near background
Construct (chain): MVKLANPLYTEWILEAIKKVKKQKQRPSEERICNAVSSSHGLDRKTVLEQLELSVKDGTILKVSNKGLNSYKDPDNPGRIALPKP
`GTTAACCA` has an E-score of -0.214.
With `AGACCTGG` the E-score was -0.0324.
`CGTGGGCA` gave an E-score of -0.0538.
`GGTGGTCA` gave an E-score of 0.0775.
`CACATTGG` gave an E-score of -0.19.

Sample 3 — technique: protein-binding microarray; molecule type: double-stranded DNA, one strand shown; medium: in vitro; concentration: 250 nM; notes: 60-bp whole probe; added: salmon DNA 0.4 mg/ml; relative to: random background probes; reading: higher = stronger binding; all sequences stand within: GCCTAGCAC … GTCTTGATTCGCTTGACGCTGCTG
Target: Interferon regulatory factor 7, full length, phosphomimetic (IRF7, Homo sapiens, UniProt Q92985, residues 1-503, S101K/S471D/S472D/S475D/S476D/S477D/S483D/S484D/S487D)
Chain of UniProt Q92985 (whole entry, unmodified, looked up): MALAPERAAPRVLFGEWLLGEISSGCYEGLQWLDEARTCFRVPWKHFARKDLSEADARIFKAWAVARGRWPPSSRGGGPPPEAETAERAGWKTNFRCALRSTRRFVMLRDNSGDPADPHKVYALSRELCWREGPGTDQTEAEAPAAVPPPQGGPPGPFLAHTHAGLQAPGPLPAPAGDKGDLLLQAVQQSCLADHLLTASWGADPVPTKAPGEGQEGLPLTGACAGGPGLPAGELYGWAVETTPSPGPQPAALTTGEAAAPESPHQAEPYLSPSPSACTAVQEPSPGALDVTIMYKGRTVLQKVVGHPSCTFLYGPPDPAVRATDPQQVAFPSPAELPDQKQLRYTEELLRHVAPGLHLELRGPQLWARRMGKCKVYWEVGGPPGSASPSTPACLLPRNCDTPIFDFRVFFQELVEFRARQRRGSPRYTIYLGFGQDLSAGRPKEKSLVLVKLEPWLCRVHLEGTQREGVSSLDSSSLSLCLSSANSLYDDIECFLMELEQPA
For `CTAGGACTGGGGTTTCGGTTAGTGCTA`, the log fluorescence was 5.03 z-score.
`CTCCTCTCTGGGTCAAAGGTGTGCTAG` has a log fluorescence of 0.196 z-score.
For `TTAGGACTGGGTATCGGTCAGTGCTAG`, the log fluorescence was -0.00338 z-score.
`TCATCTATCTCTGTTTTACTGTGCTAG` gave a log fluorescence of 0.718 z-score.
For `GACGGACTGGTTATCGGGACGTGCTAG`, the log fluorescence was -0.357 z-score.
With `CTACGTCTGATTTTGCTTTCGTGCTAG` the log fluorescence was 0.292 z-score.

Mixed results
With `PhoQ, residues 284 288 289 292 302 303 ALVSVA` the fold induction was 4.44 (PhoP, residues 12 14 15 18 19 TPWLV (Escherichia coli, UniProt P23836); Sort-seq, refers to: YFP reporter; E. coli; PhoQ-PhoP variant library, added: 10 µM Mg2+; relative to: high Mg2+ state, higher = stronger signaling).

For quick reference, copied from above (mixed results):
With `PhoQ, residues 284 288 289 292 302 303 ALVSVA` the fold induction was 4.44 (PhoP, residues 12 14 15 18 19 TPWLV (Escherichia coli, UniProt P23836); Sort-seq, refers to: YFP reporter; E. coli; PhoQ-PhoP variant library, added: 10 µM Mg2+; relative to: high Mg2+ state, higher = stronger signaling).
